Measured values pooled from the literature.
Parts stem from different laboratories: compare values within a part only. Changes are numbered by the printed parent chain.

Sample 1 — target: CCNE1, cyclin fold, Cln2 fusion (human); technique: yeast growth competition, sequencing; matrix: yeast; setting: strong parent motif; reference: not given; reading: higher = stronger binding
Starting sequence: CDKN1A docking peptide (human); SKACRRLFGPVDS
| Substitution | normalised enrichment score |
| --- | --- |
| R5W | 0.395 |
| R5K F8L | 0.0289 |
| K2C | 4.06 |
| L7F | 0.414 |
| L7V | 0.703 |
| L7S | -0.0264 |
| A3F | 1.65 |
| A3C | 4.56 |
| R5E | 0.123 |
| V11G | 6.01 |
| D12H | 4.28 |
| P10C | 4.65 |
| R6Y | 1.77 |
| A3P | 2.64 |

Sample 2 — technique: protein binding microarray; form: double-stranded DNA, one strand shown; matrix: in vitro; concentration: not given; reference: not given; reading: higher = stronger binding
Target: Histone acetyltransferase KAT6A, winged helix 2, GST fusion (KAT6A, Homo sapiens, UniProt Q92794, residues 85-181)
Setting: 8-mer, flanks averaged, mean of 2 arrays, mostly near background
Residues (chain): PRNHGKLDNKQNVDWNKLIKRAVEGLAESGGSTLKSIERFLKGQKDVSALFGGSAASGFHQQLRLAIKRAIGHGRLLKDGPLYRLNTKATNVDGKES
| Oligonucleotide | E-score |
| --- | --- |
| CAAGTACA | -0.145 |
| AACTAGTG | -0.198 |
| AACTAGCT | 0.102 |
| ACTCGTCT | -0.0107 |
| CGATGCAG | -0.0286 |
| AATTGCTG | 0.0212 |
| CGCATGCC | 0.221 |
| GATGTCTA | 0.0357 |
| GACGAGGA | 0.0951 |
| GTTGTTGA | 0.0948 |
| AAGATCGT | -0.146 |
| CCACGTGC | 0.0707 |
| CCCCCGAC | 0.11 |
| ATGCAGTG | 0.0975 |
| CTCACTGC | 0.0387 |
| TCTAGCCA | -0.148 |
| CAGAATTA | 0.0641 |
| CGCTCAAA | 0.0294 |
| GCCTCGCC | 0.208 |
| GGGCGCCC | 0.333 |

Sample 3 — technique: DHFR PCA, dose-response; matrix: yeast; setting: Hill fit, mean, not affinity; added: (+)-ABA, dose series; reading: lower = more sensitive
Target: ABI1, truncated, D143A, DHFR fusion (Arabidopsis thaliana, UniProt P49597)
Starting sequence: PYL1, truncated, DHFR fusion (Arabidopsis thaliana, UniProt Q8VZS8); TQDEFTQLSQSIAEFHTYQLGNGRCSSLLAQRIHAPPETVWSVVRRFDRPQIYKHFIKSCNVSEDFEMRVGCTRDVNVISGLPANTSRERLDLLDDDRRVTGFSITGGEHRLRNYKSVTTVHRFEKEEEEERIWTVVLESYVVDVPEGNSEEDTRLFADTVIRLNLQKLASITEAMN
| Substitution | ABA EC50 |
| --- | --- |
| G23A | 7.65 µM |
| L8Q | 21.2 µM |
| S26C | 2.75 µM |
| G23T | 11.1 µM |
| R163M | 31.7 µM |
| Q51D | 14.4 µM |
| E131R | 6.18 µM |
| D92C | 49.2 µM |
| E64K | 3.92 µM |
| R163C | 22.3 µM |
| K116V | 74.7 µM |
| P146N | 261 µM |
| D144K | 42.2 µM |
| N61V | 2.83 µM |
| Q19I | 3.08 µM |
| E125G | 2.38 µM |

Sample 4 — technique: RNA Bind-n-Seq; form: RNA; matrix: in vitro; concentration: 90 pmol; setting: 4-mer, random 30-nt RNA, single round; added: 3 µM DMDA-PatA, 2 mM ADP, 2 mM phosphate; reference: input library; reading: higher = stronger binding
Target: Eukaryotic initiation factor 4A-I (EIF4A1, Homo sapiens, UniProt P60842, residues 1-406, full length assumed)
Chain of UniProt P60842 (whole entry, looked up): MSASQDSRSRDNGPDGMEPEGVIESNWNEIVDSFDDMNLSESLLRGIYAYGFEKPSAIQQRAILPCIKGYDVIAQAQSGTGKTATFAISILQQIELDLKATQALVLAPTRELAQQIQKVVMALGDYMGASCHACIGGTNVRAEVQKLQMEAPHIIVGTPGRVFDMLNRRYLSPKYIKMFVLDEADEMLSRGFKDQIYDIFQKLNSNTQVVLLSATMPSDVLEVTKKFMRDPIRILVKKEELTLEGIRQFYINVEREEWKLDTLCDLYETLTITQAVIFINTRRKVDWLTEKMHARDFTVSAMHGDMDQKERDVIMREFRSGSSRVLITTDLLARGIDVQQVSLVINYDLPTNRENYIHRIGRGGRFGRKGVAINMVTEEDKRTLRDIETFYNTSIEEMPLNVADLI
| Oligonucleotide | 4-mer enrichment |
| --- | --- |
| GAAU | 1.14 fold |
| AAAG | 1.32 fold |
| ACUA | 0.665 fold |
| UCCU | 0.587 fold |
| GUUU | 1.28 fold |
| AUCA | 0.771 fold |
| GCAA | 1 fold |
| AUCG | 0.658 fold |
| ACUG | 0.705 fold |
| CCAG | 0.703 fold |
| ACAC | 0.66 fold |
| UUAG | 1.08 fold |
| UGGG | 1.33 fold |
| ACGA | 0.72 fold |

A few entries again (sample 2):
| Oligonucleotide | E-score |
| --- | --- |
| GACGAGGA | 0.0951 |
| ATGCAGTG | 0.0975 |
| CAAGTACA | -0.145 |
| AAGATCGT | -0.146 |
| GCCTCGCC | 0.208 |
